Measurements collected from several papers.
± gives the spread as reported.
Cytochrome P450 2A13: Cytochrome P450 2A13 (Homo sapiens, UniProt Q16696)
Sequence of UniProt Q16696 (whole entry, looked up): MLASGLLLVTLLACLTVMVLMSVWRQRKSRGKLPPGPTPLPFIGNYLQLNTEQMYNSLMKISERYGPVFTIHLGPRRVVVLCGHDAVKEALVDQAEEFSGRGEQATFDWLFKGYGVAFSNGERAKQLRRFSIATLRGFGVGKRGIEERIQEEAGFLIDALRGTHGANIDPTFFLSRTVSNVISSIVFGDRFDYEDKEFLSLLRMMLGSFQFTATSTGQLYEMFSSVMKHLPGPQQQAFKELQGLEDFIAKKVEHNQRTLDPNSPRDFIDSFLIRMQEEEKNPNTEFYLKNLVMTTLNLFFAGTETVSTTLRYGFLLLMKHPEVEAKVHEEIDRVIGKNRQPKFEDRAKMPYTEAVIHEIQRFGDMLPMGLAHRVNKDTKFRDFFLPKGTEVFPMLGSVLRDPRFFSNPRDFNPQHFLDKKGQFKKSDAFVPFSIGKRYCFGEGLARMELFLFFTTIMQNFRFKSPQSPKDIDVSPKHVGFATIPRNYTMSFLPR
gag-pol reverse transcriptase: Gag-Pol polyprotein, reverse transcriptase (gag-pol, Human immunodeficiency virus 1, UniProt P03366)
Sequence of UniProt P33535 (whole entry, looked up): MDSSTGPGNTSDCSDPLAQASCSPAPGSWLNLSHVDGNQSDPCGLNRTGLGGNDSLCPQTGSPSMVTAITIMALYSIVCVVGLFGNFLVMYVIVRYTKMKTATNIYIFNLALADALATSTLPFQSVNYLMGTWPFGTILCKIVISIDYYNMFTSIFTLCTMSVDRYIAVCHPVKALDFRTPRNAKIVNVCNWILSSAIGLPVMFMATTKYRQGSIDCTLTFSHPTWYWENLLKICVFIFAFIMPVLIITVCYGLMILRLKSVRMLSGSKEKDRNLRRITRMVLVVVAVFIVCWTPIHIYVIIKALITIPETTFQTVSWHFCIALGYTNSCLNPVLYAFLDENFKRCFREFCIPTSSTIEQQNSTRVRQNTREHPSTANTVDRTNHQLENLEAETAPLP
Sequence of UniProt P03313 (whole entry, looked up): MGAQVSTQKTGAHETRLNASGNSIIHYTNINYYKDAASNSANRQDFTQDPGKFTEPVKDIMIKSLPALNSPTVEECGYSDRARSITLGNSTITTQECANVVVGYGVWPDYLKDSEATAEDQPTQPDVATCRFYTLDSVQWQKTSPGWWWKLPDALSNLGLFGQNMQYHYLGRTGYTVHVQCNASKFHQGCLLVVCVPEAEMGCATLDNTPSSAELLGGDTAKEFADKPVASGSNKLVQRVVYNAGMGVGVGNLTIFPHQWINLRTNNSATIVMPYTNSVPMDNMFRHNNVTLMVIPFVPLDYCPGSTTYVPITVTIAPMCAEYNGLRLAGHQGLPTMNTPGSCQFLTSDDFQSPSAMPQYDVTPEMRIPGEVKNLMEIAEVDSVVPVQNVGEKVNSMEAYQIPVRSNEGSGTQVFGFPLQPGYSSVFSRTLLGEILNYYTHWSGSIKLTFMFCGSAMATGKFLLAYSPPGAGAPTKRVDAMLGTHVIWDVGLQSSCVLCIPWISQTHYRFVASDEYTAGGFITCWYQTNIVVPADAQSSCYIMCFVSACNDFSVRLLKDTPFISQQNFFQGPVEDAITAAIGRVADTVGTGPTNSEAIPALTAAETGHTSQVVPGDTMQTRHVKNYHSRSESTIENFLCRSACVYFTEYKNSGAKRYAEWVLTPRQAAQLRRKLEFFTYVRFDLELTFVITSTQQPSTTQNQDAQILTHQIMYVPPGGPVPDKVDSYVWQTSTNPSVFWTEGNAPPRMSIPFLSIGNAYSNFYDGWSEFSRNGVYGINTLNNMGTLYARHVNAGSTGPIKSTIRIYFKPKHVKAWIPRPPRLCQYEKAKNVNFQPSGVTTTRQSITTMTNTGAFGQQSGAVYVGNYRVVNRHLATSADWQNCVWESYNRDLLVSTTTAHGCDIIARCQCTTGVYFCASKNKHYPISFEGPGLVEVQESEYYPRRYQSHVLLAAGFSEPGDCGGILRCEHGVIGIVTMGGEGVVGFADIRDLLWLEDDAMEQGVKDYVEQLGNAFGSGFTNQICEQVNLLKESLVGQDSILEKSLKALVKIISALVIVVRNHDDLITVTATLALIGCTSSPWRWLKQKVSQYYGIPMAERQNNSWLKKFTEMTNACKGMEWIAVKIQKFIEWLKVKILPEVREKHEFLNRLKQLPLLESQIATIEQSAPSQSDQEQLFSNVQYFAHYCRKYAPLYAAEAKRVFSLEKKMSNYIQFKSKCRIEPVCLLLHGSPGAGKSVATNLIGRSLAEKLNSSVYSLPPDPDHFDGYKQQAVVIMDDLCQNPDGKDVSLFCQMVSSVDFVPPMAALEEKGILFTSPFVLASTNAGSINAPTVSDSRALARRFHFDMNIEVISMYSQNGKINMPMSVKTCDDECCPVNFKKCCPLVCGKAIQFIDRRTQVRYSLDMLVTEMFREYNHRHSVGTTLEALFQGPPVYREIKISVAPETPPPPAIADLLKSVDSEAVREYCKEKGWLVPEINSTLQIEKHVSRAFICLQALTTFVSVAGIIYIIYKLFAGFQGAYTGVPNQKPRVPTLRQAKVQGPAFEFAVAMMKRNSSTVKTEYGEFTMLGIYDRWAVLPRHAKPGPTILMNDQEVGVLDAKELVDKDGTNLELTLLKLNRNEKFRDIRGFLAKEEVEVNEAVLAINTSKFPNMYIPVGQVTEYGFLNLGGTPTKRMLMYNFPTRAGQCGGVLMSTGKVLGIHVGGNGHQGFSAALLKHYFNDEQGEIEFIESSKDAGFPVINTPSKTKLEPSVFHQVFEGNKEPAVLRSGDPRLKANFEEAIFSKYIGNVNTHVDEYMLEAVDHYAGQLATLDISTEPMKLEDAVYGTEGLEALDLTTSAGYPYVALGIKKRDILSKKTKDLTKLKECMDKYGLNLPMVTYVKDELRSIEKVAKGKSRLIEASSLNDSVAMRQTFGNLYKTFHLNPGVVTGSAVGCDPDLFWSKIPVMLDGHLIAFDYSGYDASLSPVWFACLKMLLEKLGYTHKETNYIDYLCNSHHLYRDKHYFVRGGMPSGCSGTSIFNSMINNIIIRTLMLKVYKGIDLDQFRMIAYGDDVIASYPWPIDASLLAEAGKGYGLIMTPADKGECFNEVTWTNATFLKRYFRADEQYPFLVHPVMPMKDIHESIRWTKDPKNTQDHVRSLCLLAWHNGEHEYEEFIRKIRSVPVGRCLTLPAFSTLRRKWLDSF
Sequence of UniProt Q99436 (whole entry, looked up): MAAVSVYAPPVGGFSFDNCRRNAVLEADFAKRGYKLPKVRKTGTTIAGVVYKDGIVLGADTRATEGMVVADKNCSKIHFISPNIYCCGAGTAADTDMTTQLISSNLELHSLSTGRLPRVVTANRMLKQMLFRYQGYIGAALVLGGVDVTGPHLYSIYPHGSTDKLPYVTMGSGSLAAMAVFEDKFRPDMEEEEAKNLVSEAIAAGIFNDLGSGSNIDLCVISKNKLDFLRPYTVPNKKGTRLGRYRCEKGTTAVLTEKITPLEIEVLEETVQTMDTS
Sequence of UniProt P55212 (whole entry, looked up): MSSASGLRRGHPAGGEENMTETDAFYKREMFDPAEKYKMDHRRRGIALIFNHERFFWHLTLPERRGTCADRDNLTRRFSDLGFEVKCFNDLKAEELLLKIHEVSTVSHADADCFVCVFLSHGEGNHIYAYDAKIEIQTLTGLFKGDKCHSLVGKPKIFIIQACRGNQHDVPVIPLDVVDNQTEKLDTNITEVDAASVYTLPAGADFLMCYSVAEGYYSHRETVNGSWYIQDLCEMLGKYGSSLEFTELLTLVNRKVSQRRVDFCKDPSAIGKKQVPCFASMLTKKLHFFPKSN
Sequence of UniProt O15151 (whole entry, looked up): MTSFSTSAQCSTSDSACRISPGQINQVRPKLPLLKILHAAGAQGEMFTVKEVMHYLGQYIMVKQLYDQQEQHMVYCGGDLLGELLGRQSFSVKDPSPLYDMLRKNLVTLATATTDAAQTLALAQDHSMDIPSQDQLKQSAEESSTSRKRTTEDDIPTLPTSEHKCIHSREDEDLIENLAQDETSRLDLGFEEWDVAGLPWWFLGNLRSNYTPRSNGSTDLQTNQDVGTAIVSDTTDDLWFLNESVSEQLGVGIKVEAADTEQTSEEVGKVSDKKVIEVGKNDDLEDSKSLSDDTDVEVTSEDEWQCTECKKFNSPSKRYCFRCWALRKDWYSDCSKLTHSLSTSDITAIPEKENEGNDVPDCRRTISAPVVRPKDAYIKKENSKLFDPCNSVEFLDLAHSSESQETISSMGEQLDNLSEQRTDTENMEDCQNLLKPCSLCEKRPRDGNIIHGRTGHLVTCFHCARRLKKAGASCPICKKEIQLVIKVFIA
Sequence of UniProt Q9UKF6 (whole entry, looked up): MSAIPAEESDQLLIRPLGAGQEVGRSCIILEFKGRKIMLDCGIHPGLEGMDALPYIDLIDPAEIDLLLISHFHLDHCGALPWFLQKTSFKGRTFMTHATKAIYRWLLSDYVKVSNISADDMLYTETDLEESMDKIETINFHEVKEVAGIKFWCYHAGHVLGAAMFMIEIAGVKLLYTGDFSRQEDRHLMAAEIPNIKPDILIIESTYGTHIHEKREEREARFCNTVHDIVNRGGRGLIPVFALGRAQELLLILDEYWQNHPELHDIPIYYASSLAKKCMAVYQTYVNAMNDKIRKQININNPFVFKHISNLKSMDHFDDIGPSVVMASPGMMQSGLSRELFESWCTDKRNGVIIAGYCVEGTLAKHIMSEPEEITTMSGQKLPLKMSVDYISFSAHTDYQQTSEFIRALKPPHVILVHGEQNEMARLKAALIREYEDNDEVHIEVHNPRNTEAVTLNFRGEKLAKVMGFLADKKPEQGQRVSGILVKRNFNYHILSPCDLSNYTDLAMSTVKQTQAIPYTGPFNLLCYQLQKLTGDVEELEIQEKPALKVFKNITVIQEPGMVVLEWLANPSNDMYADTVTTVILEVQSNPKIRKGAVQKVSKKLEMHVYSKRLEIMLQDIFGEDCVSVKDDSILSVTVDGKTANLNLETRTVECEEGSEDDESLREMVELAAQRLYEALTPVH

| Structure (SMILES) | target | test | test system | conditions | IC50 [µM] |
| --- | --- | --- | --- | --- | --- |
| N/C(=N\C(=O)c1nc(Cl)c(N)nc1N)NCc1ccc(Cl)c(Cl)c1 | Genome polyprotein, 3D RNA polymerase (Coxsackievirus B3, UniProt P03313) | RNA polymerase activity, inhibitor, single AMP incorporation |  | Mg2+ preincubation | 45 ± 1 |
| C#Cc1ccc2ccc3ccccc3c2c1 | Cytochrome P450 2A13 | enzyme activity, inhibitor |  | 20 min, pH 7.4 | 0.4 to 10 |
| COC(=O)c1c(C)[nH]c(C(=O)COn2nnc3ccc(S(=O)(=O)N(C)C)cc32)c1C | Genome polyprotein, 3C protease (rhinovirus B14, UniProt P03303) | protease activity, inhibitor, SAMDI-MS |  |  | > 100 |
| COc1cccc(C2SCC(=O)N2c2nc(-c3ccc(S(=O)(=O)N4CCOCC4)cc3)cs2)c1 (centres unmarked) | gag-pol reverse transcriptase |  |  |  | > 4 |
| COc1cc(Nc2ncc(F)c(Nc3ccc4c(n3)NC(=O)C(C)(C)O4)n2)cc(OC)c1OC | Caspase-6 (CASP6, Homo sapiens, UniProt P55212) |  |  |  | > 10 |
| CN1CCN(CCOc2c(Cl)cc(C(=O)N[C@@H](Cc3ccccc3)C(=O)O)c(O)c2Cl)CC1 | CPSF3 (Homo sapiens, UniProt Q9UKF6) | pre-mRNA cleavage | HeLa nuclear extract | added: adenovirus L3 PAS substrate | 0.8 |
| CC(C)C[C@H]1CNC(=O)N2C[C@H](C[C@H]2C(N)=O)SCCCCCCSC[C@H](NC(=O)[C@H](Cc2ccccc2)NC(=O)[C@H](CO)NC(=O)[C@@H](N)[C@@H](C)O)C(=O)N[C@@H](CCC(=O)O)C(=O)N[C@@H](Cc2ccc(O)cc2)C(=O)N[C@@H](Cc2c[nH]c3ccccc23)C(=O)N[C@@H](C)C(=O)N[C@@H](CC(C)C)CNC(=O)N1 | Protein Mdm4, with p53 (MDM4, Homo sapiens, UniProt O15151) | p53 binding, TR-FRET |  |  | 0.0747 |
| O=C1C(P(=O)(O)O)CC(O)N1O (centres unmarked) | enolase (ENO1 and ENO2) | enzyme activity, inhibitor, NADH-linked |  | added: 2-phosphoglycerate | ~0.02 |
| C#Cc1cc2ccccc2c2ccccc12 | Cytochrome P450 2A13 | enzyme activity, inhibitor |  | 20 min, pH 7.4 | 15 to 80 |
| N#Cc1ccc(Nc2ncc(Cc3ccc(-c4ccccc4)cc3)o2)cc1 | gag-pol reverse transcriptase | enzyme activity, inhibitor | HIV-1 |  | > 100 |
| COc1ccc(C[C@H](NC(=O)[C@H](C)NC(=O)CN2CCOCC2)C(=O)N[C@H](C(=O)[C@@]2(C)CO2)C2CCCCC2)cc1 | PSMB7 (Homo sapiens, UniProt Q99436) | inhibitor, competitive ABPP | Raji cell lysate | constitutive proteasome β2c | > 10 |
| Cc1cc(O)cc(C)c1C[C@H](N)C(=O)N1Cc2ccccc2CC1C(=O)NCC(=O)NC(Cc1ccc(Cl)cc1)C(=O)N(C)CCC[C@@]1(c2ccc(F)cc2)OCc2cc(C#N)ccc21 (stereo in doubt) | Oprm1 (Rattus norvegicus, UniProt P33535) |  |  |  | 0.0741 |
| C[C@H]1CN(c2n[nH]c3nc(N[C@H]4CC[C@H](NS(=O)(=O)CCC(F)(F)F)CC4)ncc23)CCO1 | ATP1A1 (Homo sapiens, UniProt P05023) | biochemical |  |  | ≥ 20 |
| CC[C@H](C)[C@H](NC(=O)[C@H](CCC(=O)O)NC(=O)[C@H](CCCNC(=N)N)NC(=O)[C@@H](NC(=O)[C@H](CCCCN)NC(=O)[C@H](Cc1ccc(O)cc1)NC(=O)[C@@H](NC(=O)[C@H](CC(=O)O)NC(=O)[C@@H](N)CO)[C@@H](C)CC)[C@@H](C)CC)C(=O)O | Uncharacterized protein (Equus caballus, UniProt Q38RB9) | peptide binding, competitor, competitive radioligand binding | purified horse MHC class I | pH 7 | 0.0014 |

For quick reference, copied from above:
| Structure (SMILES) | target | test | test system | conditions | IC50 [µM] |
| --- | --- | --- | --- | --- | --- |
| N#Cc1ccc(Nc2ncc(Cc3ccc(-c4ccccc4)cc3)o2)cc1 | gag-pol reverse transcriptase | enzyme activity, inhibitor | HIV-1 |  | > 100 |
